Published values gathered from unrelated publications.
Compare with care: the assays were run in different laboratories. ± marks the error that the study gave.

Structure (SMILES)	target or system	test	system	conditions	how to read	endpoint	result
COc1ccc2[nH]c([S+]([O-])Cc3ncc(C)c(OC)c3C)nc2c1 (centres unmarked)	–	–	human male	oral, dose not given, 2 h	reference: rifampicin-induced over baseline	R/S ratio change	1.09
Cl.[2H]C([2H])([2H])CC(=O)c1cnc(NC(=O)C2CC2)cc1Nc1cccc(-c2ncn(C([2H])([2H])[2H])n2)c1OC	–	–	human, fasted, plasma	oral, 25 mg, single dose, liquid formulation	–	elimination rate constant	2.53e-05 s⁻¹
COc1c(O)c(C)cc2c1C(=O)c1c(O)cccc1C2=O	HepaRG co-cultured with HK-2	MTT	–	133.33 µM, 24 h	reference: untreated control	cell viability	54.9 ± 8.5%
C1=C/COCc2cc(ccc2OCCN2CCCC2)Nc2nccc(n2)-c2cccc(c2)COC/1	–	–	rat Sprague-Dawley male, plasma	oral, added: voriconazole	reference: without voriconazole	Tmax decrease	19%
CCn1ncc2c1-c1cnc(N)c(c1)O[C@H](C)c1cc(F)ccc1-c1nn(C)nc1C2	–	–	Balb/c nude mouse, female, PDX, plasma	po, 5 mg/kg BID, 12 h, 5 days dosing	–	Cmin, unbound	34 ± 16 nM
CCn1cc(C(=O)O)c(=O)c2cnc(N3CCNCC3)nc21	–	starch gel membrane permeability	Gram-negative envelope surrogate	200 µM, 20 min, pH 7.4	–	amount permeated	1.51 nmol
O=C(NC[C@H]1CN(c2ccc(N3CCOCC3=O)cc2)C(=O)O1)c1ccc(Cl)s1	–	Phoenix NLME, model B	human, atrial fibrillation patients, plasma	oral	–	typical population clearance	113 mL/min
CCN(Cc1ccc(F)cc1)c1ccc(CO)c(Cl)c1	–	–	male F344 rat, serum	oral, 100 mg/kg/day, 2 days	–	ALT	412 U/L
COc1cccc2c1C(=O)c1c(O)c3c(c(O)c1C2=O)C[C@@](O)(C(=O)CO)C[C@@H]3O[C@H]1C[C@H](N)[C@H](O)[C@H](C)O1	COS-7	–	–	100 µM, 24 h, 0.1% DMSO, unit not given	reference: control	necrosis	9.15 ± 0.83
Cc1cc(O)c2c(c1)C(=O)c1cccc(O)c1C2=O	HepaRG co-cultured with HK-2	MTT	–	133.33 µM, 24 h	reference: untreated control	cell viability	93.9 ± 9.34%
COc1cc2c3c(n(CCCN4CCOCC4)c(=O)c2cc1OC)-c1cc2c(cc1C3=O)OCO2	–	–	rat	intravenous, 48 mg/m^2, 5 days once daily	reference: control	neutrophil count decrease	≤ 80%
COc1ccc2c(c1)CN(C(=O)CCN1CCC(Cc3ccccc3)CC1)CC[S@@+]2[O-]	–	telemetry	conscious dog	intravenous, 4 mg/kg, 24 h	–	diastolic blood pressure	75 ± 11 mmHg
CNC(=O)c1ccc(-c2cnc3ncc(Cc4ccc5ncccc5c4)n3n2)cc1F	–	–	Japanese patients	oral, 400 mg, grade 3/4	–	Amylase increased dose reduction/interruption	3%
CO[C@@H]1[C@@H](OC(N)=O)[C@@H](O)[C@H](Oc2ccc3c(O)c(NC(=O)c4ccc(O)c(CC=C(C)C)c4)c(=O)oc3c2C)OC1(C)C	–	starch gel membrane permeability	Gram-negative envelope surrogate	200 µM, 45 min, pH 7.4	–	amount permeated	1.5 nmol
CCc1cc(C(=O)NC)c2nccc(N3CCc4c(cc(Cn5ccnc5)cc4-c4cn(C)nc4C(F)(F)F)C3=O)c2c1	–	–	Sprague Dawley rats	oral, 50 mg/kg once daily, 7 days	–	blood TP	57.2 ± 0.87 g/L
O=c1oc2cc(O)ccc2c2ccc(O)cc12	–	–	human plasma	median	–	plasma concentration	57.7 nM
N#CCNC(=O)c1ccc(-c2ccnc(Nc3ccc(N4CCOCC4)cc3)n2)cc1	–	–	healthy volunteers, plasma	oral, dose not given, added: ritonavir multiple-dose	reference: compound alone	AUCtau increase	14%
COc1cccc(OC)c1-c1cc(C(=O)NC2(C(=O)O)C3CC4CC(C3)CC2C4)nn1-c1ccc(C(=O)N(C)CCCN(C)CCCN(C)C(=O)CN2CCN(CC(=O)[O-])CCN(CC(=O)[O-])CCN(CC(=O)[O-])CC2)cc1C(C)C.[177Lu+3] (centres unmarked)	–	–	mouse HT-29 xenograft, small intestine	24 h post injection, biodistribution	–	tissue uptake	0.32 %ID/g
COc1cc(/C=C/C(=O)O)cc(OC)c1O	–	–	human plasma	mean	–	plasma concentration	255 nM
CCN1CCN(c2cc(N3CCN(CC)CC3)nc(NCCNc3ccnc4cc(Cl)ccc34)n2)CC1	COS-7	–	–	10 µM, 24 h, 0.1% DMSO, unit not given	reference: vehicle control	confluence	0.95 ± 0.17
CCO[C@H]1CCN(Cc2c(OC)cc(C)c3[nH]ccc23)[C@H](c2ccc(C(=O)O)cc2)C1	–	–	human severe hepatic impairment, plasma	oral, 200 mg single dose, geometric mean	–	total AUC(0-inf)	58000 ng·h/mL
Cn1cnc2[nH]c(=O)[nH]c(=O)c21	–	–	human, both sexes, plasma	–	–	samples above LOQ	100%
N#Cc1ccc2c(c1)[C@H]1CCCN(C(=O)c3ccc4[nH]cnc4c3)[C@H]1C2	–	–	human, female	160 mg, day 15	–	DHEA-S level	4.8 µmol/L
